Measured values of several laboratories.
Target: Tyrosine-protein kinase Srms (SRMS, Homo sapiens, UniProt Q9H3Y6)

SMILES | test | test system | setting | how to read | measurement | result
O=C(Cc1ccc(OCc2ccccc2)cc1)NC1(C(=O)O)CCN(C(=O)c2ccc(-c3cccc(Cl)c3)cc2)CC1 | enzyme activity, inhibitor |  | 10 µM |  | activity vs control | 99%
C=CC(=O)N1Cc2nc(-c3cc(-c4cc(Cl)cnc4Cl)c(F)cc3F)n(-c3ccncn3)c2C1 | cell-free assay, inhibitor |  | 1 µM |  | inhibition | 6.7%
Cc1cccc(O[C@H]2CCC[C@@H](C(C)CNCc3ccncc3)C2)c1 (relative stereo) | enzyme activity, inhibitor |  | 1 µM |  | inhibition | -3%
CCn1cc(C(=O)O)c(=O)c2c(N)c(F)c(NC3CCCCC3)cc21 | kinase activity |  | 0.1 µM, together with: ATP at Km |  | inhibition | 7%
COc1c(Cl)cccc1Nc1c(-c2ccncc2C#C[C@@]2(C)CCCN2C(=O)/C=C/CN(C)C)[nH]c2c1C(=O)NCC2 | cell-free assay, competition with immobilised ligand |  | 3 µM |  | remaining binding | 60%
Cc1ccc(C(=O)Nc2ccc(CN3CCN(C)CC3)c(C(F)(F)F)c2)cc1C#Cc1cnc2cccnn12 | target engagement, NanoBRET | human cells |  |  | upper asymptote | 66.2
COc1cc(Nc2nccc(-c3cnn4nc(OC)ccc34)n2)cc(C(F)(F)F)c1 | binding, competition with immobilised ligand |  | 1 µM |  | remaining binding | 100%
CCN1CCN(Cc2ccc(NC(=O)c3ccc(C)c(NC(=O)c4cncc(-c5cccs5)c4)c3)cc2C(F)(F)F)CC1 | binding, competition with immobilised ligand |  | 1 µM |  | remaining binding | 14%
CC(C)=CC1OC(C)(C)C2C=C3C(=O)C(Cl)=CC(O)C3C3C(O)C4OC4C(=O)C132 (stereo not shown) | cell-free assay, competition with immobilised ligand |  | 10 µM |  | remaining binding | 67%
Nc1ncc(-c2cc(-c3cnn(CC(F)(F)F)c3)ncc2F)nc1C(=O)NC1CNCC(F)C1 (stereo not shown) | enzyme activity |  | 1 µM | baseline: DMSO control | remaining activity | 102%
CN1CC[C@@H](COc2cnc(C#N)cc2-c2ccn3nc(NC(=O)C4CC4)cc3c2)C1 | enzyme activity, inhibitor |  | 1 µM |  | inhibition | -3%
C=CC(=O)Nc1cccc(-c2cnc3[nH]cc(C(=O)NC(C)(C)C)c3n2)c1 | enzyme activity, inhibitor |  | 0.1 µM |  | inhibition | -2%
NC(=O)C[C@H]1CCc2sc3ncnc(O[C@H]4CC[C@H](N5CCOCC5)CC4)c3c21 | enzyme activity, inhibitor |  | 10 µM |  | inhibition | 19%

Excerpt of the above:
SMILES | test | test system | setting | how to read | measurement | result
C=CC(=O)Nc1cccc(-c2cnc3[nH]cc(C(=O)NC(C)(C)C)c3n2)c1 | enzyme activity, inhibitor |  | 0.1 µM |  | inhibition | -2%
NC(=O)C[C@H]1CCc2sc3ncnc(O[C@H]4CC[C@H](N5CCOCC5)CC4)c3c21 | enzyme activity, inhibitor |  | 10 µM |  | inhibition | 19%
